Measurements pooled from the literature.
Each numbered part is a random draw from the data of one study; scales do not carry over between parts. Positions count from the first letter of the parent shown.

Set 1
Target: Interferon regulatory factor 7, full length, phosphomimetic (IRF7, Homo sapiens, UniProt Q92985, residues 1-503, S101K/S471D/S472D/S475D/S476D/S477D/S483D/S484D/S487D)
Method: protein-binding microarray
Molecule type: double-stranded DNA, one strand shown
Matrix: in vitro
Concentration: 250 nM
Setting: 60-bp whole probe
Together with: salmon DNA 0.4 mg/ml
Baseline: random background probes
Reading: higher = stronger binding
Endpoint: log fluorescence
Constant ends, left off below: GCCTAGCAC … GTCTTGATTCGCTTGACGCTGCTG
Construct (chain): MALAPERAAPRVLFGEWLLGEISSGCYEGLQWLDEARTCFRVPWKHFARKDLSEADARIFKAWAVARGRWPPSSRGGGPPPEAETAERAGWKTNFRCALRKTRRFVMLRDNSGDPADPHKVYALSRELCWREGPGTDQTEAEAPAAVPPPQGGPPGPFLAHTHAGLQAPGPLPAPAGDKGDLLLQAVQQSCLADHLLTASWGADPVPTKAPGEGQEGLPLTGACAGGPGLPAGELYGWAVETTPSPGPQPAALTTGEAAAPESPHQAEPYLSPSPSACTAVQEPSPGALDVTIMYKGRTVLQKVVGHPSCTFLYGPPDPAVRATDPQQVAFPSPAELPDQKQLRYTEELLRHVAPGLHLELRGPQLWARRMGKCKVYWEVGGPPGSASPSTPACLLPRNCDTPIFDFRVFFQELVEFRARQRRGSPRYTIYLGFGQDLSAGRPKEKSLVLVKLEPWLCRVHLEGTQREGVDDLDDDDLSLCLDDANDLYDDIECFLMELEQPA
GACGGTTTCGGGCTCGGGACGTGCTAG: 3.14 z-score
GACGGACTGCTTTTCCTGGCGTGCTAG: -0.0665 z-score
TCATTCTTTTTTTTCTTACTGTGCTAG: 1.29 z-score
GATGATTTCAGTCTCGAGACGTGCTAG: 0.278 z-score
TCACTTCCCCATCTTGTACTGTGCTAG: 2.17 z-score
GACGGTATCCTGTTCCTGACGTGCTAG: 0.103 z-score
TCAATTTTCGGGTAGATGACTGTGCTA: 1.26 z-score
TTAGGTATCGGCTTCGGTTAGTGCTAG: 0.941 z-score
TTAGAAATGAGTATCGATTAGTGCTAG: 0.811 z-score
TCATAGGTTTCACTTTCCACTGTGCTA: 6.3 z-score
TTAGGTCTCGGACTGGCTTAGTGCTAG: 0.229 z-score
GACGGTTTCGGGTTTAGGGACGTGCTA: 10.7 z-score
GACGATGCCAGTTTCGAGACGTGCTAG: 3.08 z-score
TTAGGACTGCTTCTCCCTTAGTGCTAG: 0.5 z-score
TTAGGTTTCGGTAACGGTTAGTGCTAG: 3.95 z-score
TCATCTTTCACTACTCCACTGTGCTAG: 0.862 z-score
GACGGTATCGACTGTCGGGACGTGCTA: -0.48 z-score
GACGGTTTCGGGACTGCGGACGTGCTA: 4.51 z-score
TTAGATATCAGTATGGATTAGTGCTAG: 0.021 z-score
GACGAGTTCGGGTTTCGAGACGTGCTA: 3.76 z-score
GACGAACTGGGGACGGGAGACGTGCTA: -0.236 z-score
TCGTAAGCAAAAATGATTGGGTGCTAG: -0.0329 z-score
TTAGGACTGCTTCTCCTTTGGTGCTAG: 0.738 z-score
TTAGGGTTCGACACTGGGTTAGTGCTA: -0.283 z-score
TTAGGTTTCGACGCTGGGTTAGTGCTA: 1.73 z-score

Set 2
Target: ABI1, truncated, D143A, DHFR fusion (Arabidopsis thaliana)
Method: DHFR PCA, deep sequencing
Matrix: yeast
Setting: methotrexate growth selection, single substitutions
Together with: (+)-ABA 0.39 µM
Baseline: wild-type fitted maximum
Reading: higher = stronger binding
Endpoint: relative binding score
Starting sequence: PYL1, truncated, DHFR fusion (Arabidopsis thaliana); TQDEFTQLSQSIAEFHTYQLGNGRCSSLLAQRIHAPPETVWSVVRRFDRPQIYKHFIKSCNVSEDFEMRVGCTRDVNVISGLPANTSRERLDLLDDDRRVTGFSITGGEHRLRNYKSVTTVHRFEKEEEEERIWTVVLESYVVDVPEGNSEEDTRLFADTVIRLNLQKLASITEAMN
I79K: 11.8%
E152F: -0.97%
E151W: 6.57%
R98C: 9.6%
S59W: 7.72%
E89P: -9%
S63G: 57.4%
E131K: 67.7%
R69T: 44.3%
F5H: 18.5%
E38R: -3.08%
S63Y: 0.554%
V43L: 28.8%
A175W: 7.04%
P83F: 12.2%
L8C: 16.1%
I57Q: -16.5%
E151F: -4.72%
H34Y: 43%
P50A: 1.08%
H16R: -5.25%
E4S: 18.8%
S11I: 40.2%
G81C: 17.5%
G81L: 3.12%

Set 3
Target: CEBPD, bZIP domain (human)
Method: DHFR protein complementation
Matrix: yeast
Setting: single substitutions, most at no-binding floor
Baseline: wild-type JUN-FOS pair
Reading: higher = stronger binding
Endpoint: binding fitness
Starting sequence: JUN, bZIP domain (human); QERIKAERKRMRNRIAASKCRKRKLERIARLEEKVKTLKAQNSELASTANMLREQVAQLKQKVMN; partner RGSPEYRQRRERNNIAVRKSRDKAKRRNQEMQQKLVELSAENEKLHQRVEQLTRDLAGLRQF
A46H: -1.33 natural log
Q41C: -1.48 natural log
Q41A: -1.38 natural log
L45Y: -1.49 natural log
T48P: -1.47 natural log
V35G: -1.5 natural log
L31Q: -1.37 natural log
Q41M: -1.43 natural log
L45T: -1.51 natural log
L45G: -1.48 natural log
A57K: -1.44 natural log
A46V: -1.36 natural log
T37E: -1.31 natural log
Q41F: -1.37 natural log
R30N: -1.34 natural log
A49S: -1.42 natural log
K39D: -1.39 natural log
K39R: -1.29 natural log
I28Y: -1.27 natural log
K36T: -1.44 natural log
K34W: -1.34 natural log
K36H: -1.42 natural log
A29E: -1.31 natural log
E33G: -1.36 natural log
S43M: -1.31 natural log

Set 4
Target: CCNB3, cyclin fold, Cln2 fusion (human)
Method: yeast growth competition, sequencing
Matrix: yeast
Setting: weak parent motif
Baseline: not given
Reading: higher = stronger binding
Endpoint: normalised enrichment score
Starting sequence: RP1L1 docking peptide (human); TLGLGPLSFTLED
TLGLGPLSFTAED [L11A]: -0.343
TLGLGPLSFALED [T10A]: 0.229
ALGLGPLSFTLED [T1A]: 0.0265
TLALGPLSFTLED [G3A]: 0.00354
TLGLGALSFTLED [P6A]: -0.141
TLGLAPLSFTLED [G5A]: 0.228
TLGAGPLSFTLED [L4A]: -0.195

Set 5
Target: RNA binding protein fox-1 homolog 2, RRM domain, GST-SBP tag (RBFOX2, Homo sapiens, UniProt O43251-10, residues 100-194)
Method: RNA Bind-n-Seq
Molecule type: RNA
Matrix: in vitro
Concentration: 365 nM
Setting: natural RNA segment, single round, ends assumed
Baseline: no-protein control
Reading: higher = stronger binding
Endpoint: RBNS enrichment (R)
Residues (chain): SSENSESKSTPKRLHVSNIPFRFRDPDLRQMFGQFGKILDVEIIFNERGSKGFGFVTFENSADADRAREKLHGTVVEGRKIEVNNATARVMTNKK
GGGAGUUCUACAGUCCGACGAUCUUUGGUGCUUUCAACUCAUUGGGAAGAGCUGCAGAUAUUACCAAAAUAGGCUGGCUACAUGAACACUGUCAGAAAUCCCAGACUUGCCCACAAGGAUAAUGCUGCAUUUUUGGAAUUCUCGGGUGCCAA: 3.79
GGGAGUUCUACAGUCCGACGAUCUAGUGGUCAGCUCUGAGGGGGGACUGGUGACUCUGAACAGAUCGAUGUCAACAGCCAUGGUGAACCAGAUCUGGGCAGGGUUCCCCAAACUCUAUUCAACCAGAGUUUUAUGGAAUUCUCGGGUGCCAA: 0.217
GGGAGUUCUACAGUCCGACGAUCUCCCAUCCCCUGAGCAUCUUUUCGUAUUUAGAUUUGUCUCUGUUAAAAUGAUGAAACGGAAAUCGGUCCUGUCGUCUUGUUAGCAUGAUUCAUGUAUUUAUAUAGAUCCGUGGAAUUCUCGGGUGCCAA: 0.455
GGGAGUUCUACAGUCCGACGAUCAGUCAAGAUUUGGAAUUUAAGUCACUGGCAGGUAUCUGUGCAUUCAUAGAACUUAUAAAGGUCCCAGGAUCACUUUUAAGGGAUUUUUAUUAGUUUAAAGGUAAAUAAAGUGGAAUUCUCGGGUGCCAA: 0.468
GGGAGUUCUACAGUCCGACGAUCAAAAUGAUUGUAUAUAGUAUUCUUAAAACCAUGUGUCUUGGUGCAGAAAUAUUGACAAAUGCUGGCCAGCUUUAUCUUCCUAUAUCCUUCAUUAAAAGUAUAUGCAUAUAUGGAAUUCUCGGGUGCCAA: 0.546
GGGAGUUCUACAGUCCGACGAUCAGUUCUUUUCUGGCAACUGUCACACUCACACAUGAAGGCAAUCCGUGCAGCACAAUACAAGAUGUUUAAACAAGGUGUCAGAUUUUUUUUUUAACCUAUGAGUGGAUAGAUGGAAUUCUCGGGUGCCAA: 0.503
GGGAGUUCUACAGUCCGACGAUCACUGUAAUAUUGUGGGACUAACAUGGAUGUAACGUUUAAAAAAAAGAUCAGGAUUAUUAGUAACAAUUCUAGUUUUUUCCUCCCACCUUCUCCCUCUCCUCUCUCCUCUAUGGAAUUCUCGGGUGCCAA: 0.698
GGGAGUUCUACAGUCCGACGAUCAUGACCACCUAAAACAAUACUUUAUAUUGUUAUUUUUAGAAAGACUCAAAACACCUGUAUUUAAACCUUAAUAUGAAAAUCAUGCAAUUAAUAGUUACACAAGAUGUUUUUGGAAUUCUCGGGUGCCAA: 0.457
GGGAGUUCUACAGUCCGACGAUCUUCCCUCUGGGUUCUCCUUUCCCCAGACAGCUGUAGGGGCACAUGGUAGGGAAGCAGCAUAGGCCCCCAGGGAAACGACUCCACAGCAGGGCCUUCAUGGAUCUCCAAGUUGGAAUUCUCGGGUGCCAA: 0.261
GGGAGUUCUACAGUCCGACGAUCUGGGAUUUACAUGCAGAACAAAAGAUACUGUCAAAGGCUGUGGGGUUGCAGCUCAAAUAUUUAAGUAGCAGGAAGAAUACACAUACUAAAGGUUUUCCACUAAUGGACCAUGGAAUUCUCGGGUGCCAA: 0.639
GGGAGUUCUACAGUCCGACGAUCUGGAAGCCCUGAUCCCCCAGAGAGCUACAGGUCUGCUCCCGACGGGCCUCGGGCCUGACCCGUCCACACAGGGCCGUGUCAACAGCAGCGACUCAAGGGACGUGUGUACAUGGAAUUCUCGGGUGCCAA: 0.299
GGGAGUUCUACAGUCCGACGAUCGAACCUGCUAUGGCCUUCAGCAGUCACCAUCAUCCAGACCCCCCGGGCCUCAGUUUCCUCAAUCAUAGAAGAAGACCAAUAGACAAGAUCAGCUGUUCUUAGAUGCUGGUUGGAAUUCUCGGGUGCCAA: 0.317

Set 6
Target: Histone acetyltransferase KAT6A, winged helix 1, GST fusion (KAT6A, Homo sapiens, UniProt Q92794, residues 1-85)
Method: protein binding microarray
Molecule type: double-stranded DNA, one strand shown
Matrix: in vitro
Concentration: not given
Setting: 8-mer, flanks averaged, mean of 2 arrays, mostly near background
Baseline: not given
Reading: higher = stronger binding
Endpoint: E-score
Construct (chain): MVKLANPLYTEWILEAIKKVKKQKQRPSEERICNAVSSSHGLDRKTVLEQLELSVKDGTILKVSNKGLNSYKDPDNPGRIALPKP
CACACGTG: -0.0625
ACTCAGAA: -0.156
CTCGTTAC: -0.146
ATCGTCTA: -0.0813
GAATGACC: 0.0051
TAATCTCA: -0.101
AAACACTG: 0.0289
CTTCGGTA: -0.0535
AAGAAGGT: -0.0821
AAGATTCC: -0.0784
GGCGACGA: 0.0616
GTACCCAA: -0.0803
TATTCACA: -0.208
CTAGTGCA: 0.0366
ATTTTGAG: -0.159
AGGCCAAA: -0.183
CCGAGACC: 0.155
GTTTTGAA: -0.201
CGCATTAC: 0.299
AGTATGGG: -0.184

Excerpt of the above (set 2):
E152F: -0.97%
P83F: 12.2%
G81L: 3.12%
A175W: 7.04%
G81C: 17.5%
E131K: 67.7%
E151W: 6.57%
S11I: 40.2%
R69T: 44.3%
H16R: -5.25%
I57Q: -16.5%
H34Y: 43%
F5H: 18.5%
V43L: 28.8%
L8C: 16.1%
E4S: 18.8%
